Assay results from different studies.
Each numbered part is a random draw from the data of one study; scales do not carry over between parts. Substitutions count along the parent as printed.

Study 1
Target: RING finger protein unkempt homolog, zinc fingers 1-6, GST-SBP tag (UNK, Homo sapiens, UniProt Q9C0B0, residues 30-357)
Method: RNA Bind-n-Seq
Form: RNA
Sample: in vitro
Tested at: not given
Setting: RNA with constant flanks, human and mouse sites, ends assumed
Reference: input RNA pool
Reading: higher = stronger binding
Target sequence (chain): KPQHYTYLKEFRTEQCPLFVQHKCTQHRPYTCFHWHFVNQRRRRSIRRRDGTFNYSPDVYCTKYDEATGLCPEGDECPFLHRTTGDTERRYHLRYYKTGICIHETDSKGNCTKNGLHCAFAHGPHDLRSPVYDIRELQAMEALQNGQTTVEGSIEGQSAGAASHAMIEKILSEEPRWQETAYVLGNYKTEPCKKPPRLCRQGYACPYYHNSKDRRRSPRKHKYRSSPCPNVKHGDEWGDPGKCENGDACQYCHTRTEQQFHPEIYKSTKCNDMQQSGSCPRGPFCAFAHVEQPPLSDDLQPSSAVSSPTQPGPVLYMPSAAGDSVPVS
Strand	bound/input enrichment [ratio]
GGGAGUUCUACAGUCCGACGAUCUUUAAGCAGCAGAAGUUACUAAGACCCAAUAUAUUUGAAGACAUUUCCAAAAAAUAUAAACAACACCAGCCUACCGACAGGGUCACAGAAAACCUGAAGAAGUUACUUUCAUAUUGUGAACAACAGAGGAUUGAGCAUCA	0.595
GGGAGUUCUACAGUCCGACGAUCCGAGACCAUCUGAUGUGGGUGCUGCUGCAGUUCAUUUCUGGAAGUAUUCAGAAAAAUGCCCUCGCUGACUUCCUCCCUGUCAUGAAGCUCUUUGACCUGCUGUACCCGGAGAAGGAGUGUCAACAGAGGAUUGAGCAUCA	0.171
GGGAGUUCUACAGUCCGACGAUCUGUAACUUAUCUGUAAAAGGUUCCCCCCCCCUACUGUCAAAAAAUAUGCAUGUAUAGUAAUUAGGACUUCAUUCCUCCAUGUUUUCUUCCCUUAUCUUACUGUCAUUGUCCUUAAACCUUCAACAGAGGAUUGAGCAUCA	2.84
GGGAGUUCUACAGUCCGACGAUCGGUGAGAGCAUCAUGGUGGAACUUGCUGCUGGGCCUUUCGAGAAUGCUGAAAAGUUGCCAGUAGUUAUCAGGGUGCCAAAACUGAUGGGUUACUCAGUCAUGAGUGUAUGCUCCGUGCCUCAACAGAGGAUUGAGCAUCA	0.0889
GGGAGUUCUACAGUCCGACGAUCGAUAUGAGCAUAGAACAGAAGUUACCAAGAAAGCCUAAAACAGACAAAUUUCAGGUACUUGCUAAGUCACAUGCACAUAAAUCAGAAGCCCUGCACAGUAAAGUUAGGGAGAAAAAGAAUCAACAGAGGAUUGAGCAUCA	0.167

Study 2
Target: ABI1, truncated, D143A, DHFR fusion (Arabidopsis thaliana)
Method: DHFR PCA, deep sequencing
Sample: yeast
Setting: methotrexate growth selection, single substitutions
Together with: (+)-ABA 0.11 µM
Reference: wild-type fitted maximum
Reading: higher = stronger binding
Starting sequence: PYL1, truncated, DHFR fusion (Arabidopsis thaliana); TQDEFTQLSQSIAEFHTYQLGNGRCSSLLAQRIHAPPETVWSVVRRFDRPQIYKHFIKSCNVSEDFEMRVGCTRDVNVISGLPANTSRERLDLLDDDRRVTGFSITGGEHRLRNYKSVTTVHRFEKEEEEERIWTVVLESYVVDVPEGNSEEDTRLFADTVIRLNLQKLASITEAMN; partner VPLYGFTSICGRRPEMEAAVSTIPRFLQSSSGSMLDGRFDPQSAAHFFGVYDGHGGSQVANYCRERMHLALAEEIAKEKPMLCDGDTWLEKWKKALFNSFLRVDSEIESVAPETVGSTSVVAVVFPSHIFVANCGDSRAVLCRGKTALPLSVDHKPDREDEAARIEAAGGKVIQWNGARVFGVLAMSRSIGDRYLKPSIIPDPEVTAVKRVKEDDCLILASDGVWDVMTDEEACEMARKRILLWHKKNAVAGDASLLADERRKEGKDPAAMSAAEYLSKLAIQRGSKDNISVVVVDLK
Substitution	relative binding score [%]
R90G	-2.96
R163Q	33.7
E129K	46.8
D159W	-1.85
I12N	4.87
Q31E	4.63
P36H	33.2
K58G	-5.13
E109T	12.7

Study 3
Target: Histone acetyltransferase KAT6A, both winged helices, GST fusion (KAT6A, Homo sapiens, UniProt Q92794, residues 1-181)
Method: protein binding microarray
Form: double-stranded DNA, one strand shown
Sample: in vitro
Tested at: not given
Setting: 8-mer, flanks averaged, mean of 2 arrays, mostly near background
Reference: not given
Reading: higher = stronger binding
Target sequence (chain): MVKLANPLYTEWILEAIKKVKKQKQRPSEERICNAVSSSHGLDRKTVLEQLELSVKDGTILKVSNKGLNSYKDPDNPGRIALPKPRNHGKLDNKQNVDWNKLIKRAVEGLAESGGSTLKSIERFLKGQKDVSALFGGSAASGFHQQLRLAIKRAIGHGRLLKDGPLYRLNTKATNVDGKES
Strand	E-score
TAACCCTA	-0.161
TCCTAGCA	-0.0299
AAACTGTA	-0.0175
AACTAGCC	-0.137
CTAGGAGA	-0.209
GCCGGTAA	0.259
ATTCTGGC	-0.0296
CAAACCAA	-0.216
AGGGGAAG	-0.31
GCCAGCCA	-0.0996
CTTTGAAA	-0.0778
GACATCTC	-0.0215
CCAGTTTA	-0.203
GCCTATAC	-0.107
AGTATTGA	-0.0221
ACCGGAAG	0.193

Study 4
Target: Ras GTPase-activating protein-binding protein 1, C-terminal RGG region (G3BP1, Homo sapiens, UniProt Q13283)
UniProt Q13283, sequence (whole entry, looked up): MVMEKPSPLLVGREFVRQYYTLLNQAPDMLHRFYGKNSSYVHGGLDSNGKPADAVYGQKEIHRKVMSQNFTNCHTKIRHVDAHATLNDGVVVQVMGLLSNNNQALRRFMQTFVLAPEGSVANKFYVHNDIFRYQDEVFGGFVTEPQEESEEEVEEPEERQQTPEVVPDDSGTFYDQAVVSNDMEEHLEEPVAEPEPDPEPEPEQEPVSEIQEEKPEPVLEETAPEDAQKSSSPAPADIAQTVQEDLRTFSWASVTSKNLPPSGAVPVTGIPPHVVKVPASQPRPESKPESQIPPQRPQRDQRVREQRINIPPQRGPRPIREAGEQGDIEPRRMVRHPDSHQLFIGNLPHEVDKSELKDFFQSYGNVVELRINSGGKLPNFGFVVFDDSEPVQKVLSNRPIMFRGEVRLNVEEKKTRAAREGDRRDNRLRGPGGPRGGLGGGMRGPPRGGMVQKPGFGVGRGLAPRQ
Method: RNA Bind-n-Seq
Form: RNA
Sample: in vitro
Tested at: 1 µM
Setting: whole 134-nt RNA, ends assumed
Together with: 150 mM KCl
Reference: input library
Reading: higher = stronger binding
Strand	log2 enrichment
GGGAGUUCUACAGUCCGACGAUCCUGUGCUACACAUCGUAUGUACCGAAUCGGGGAAAGGGGAAAAAAAGGGGAAAAAAAGGGGAAAGUAUUAUGUUACGCCGUUCGGAUCUGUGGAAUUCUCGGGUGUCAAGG	-0.285
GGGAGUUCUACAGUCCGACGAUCCAAGUCCUGUGCUACACAUCGUAUGUACCGAAUCGGAAAAAGGAAAAAAAGGUGGAAAGUAUUAUGUUACGCCGUUCGGAUCUGCACUUCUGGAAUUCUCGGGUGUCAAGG	-1.78
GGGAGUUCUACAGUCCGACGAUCCCUCAAGUCCUGUGCUACACAUCGUAUGUACCGAAUCGGGGAGGGAGGGGAGGAAAGUAUUAUGUUACGCCGUUCGGAUCUGCACUUCCAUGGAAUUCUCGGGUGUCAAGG	0.851
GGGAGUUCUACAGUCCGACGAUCCAAGUCCUGUGCUACACAUCGUAUGUACCGAAUCGGGGUUUGGUUUGGGGUUUGGGAAAGUAUUAUGUUACGCCGUUCGGAUCUGCACUUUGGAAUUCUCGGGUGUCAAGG	-0.119
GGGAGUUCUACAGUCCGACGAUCGUCCUGUGCUACACAUCGUAUGUACCGAAUCGGGGUUUUUGGGGUUUUUGGGUUUUUGGAAAGUAUUAUGUUACGCCGUUCGGAUCUGCAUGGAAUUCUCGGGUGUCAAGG	-0.672
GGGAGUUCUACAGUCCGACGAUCAAGUCCUGUGCUACACAUCGUAUGUACCGAAUCGGGUUUUUGGGAAAAAGGGAGGGAAAGUAUUAUGUUACGCCGUUCGGAUCUGCACUUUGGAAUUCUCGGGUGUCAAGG	1.14
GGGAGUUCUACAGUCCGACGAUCGCAGGAAGUAAAACCAAAUGGAAAUGCUUCGGAUAGUGGCAGGGGUGGGGGUUGCUAAGGAAAGGGUGGGAUGGGAGUGGGUAAAGAGUUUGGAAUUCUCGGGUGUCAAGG	1.72

Repeated from above (study 3):
Strand	E-score
TCCTAGCA	-0.0299
AAACTGTA	-0.0175
AACTAGCC	-0.137
